Experimental data gathered from unrelated publications.
A part holds a random share of what one study measured. Substitutions count along the parent as printed.

Series 1
Target: CCNA2, cyclin fold, Cln2 fusion (human)
Method: yeast growth competition, sequencing
Sample: yeast
Setting: strong parent motif
Baseline: not given
Reading: higher = stronger binding
Starting sequence: TICRR docking peptide (human); TKVRRNLFNQELL; partner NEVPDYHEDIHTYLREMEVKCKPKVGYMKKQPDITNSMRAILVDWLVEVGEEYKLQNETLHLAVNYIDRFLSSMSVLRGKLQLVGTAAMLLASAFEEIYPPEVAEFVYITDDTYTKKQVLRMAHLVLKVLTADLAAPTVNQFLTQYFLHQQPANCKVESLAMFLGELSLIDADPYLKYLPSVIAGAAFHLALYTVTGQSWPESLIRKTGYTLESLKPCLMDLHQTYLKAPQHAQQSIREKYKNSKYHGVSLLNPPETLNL
Substitution	normalised enrichment score
TKVRRNAFNQELL [L7A]	1.25
TKVRRNLFNQALL [E11A]	4.68
TKVRRNLFAQELL [N9A]	5.16
TAVRRNLFNQELL [K2A]	3.96
TKVRRNLANQELL [F8A]	0.812
TKVRRNLFNAELL [Q10A]	3.59
TKVRKNLLNQELL [R5K F8L]	0.401

Series 2
Target: ABI1, truncated, D143A, DHFR fusion (Arabidopsis thaliana)
Method: DHFR PCA, deep sequencing
Sample: yeast
Setting: methotrexate growth selection, single substitutions
Added: (+)-ABA 0.032 µM
Baseline: wild-type fitted maximum
Reading: higher = stronger binding
Starting sequence: PYL1, truncated, DHFR fusion (Arabidopsis thaliana); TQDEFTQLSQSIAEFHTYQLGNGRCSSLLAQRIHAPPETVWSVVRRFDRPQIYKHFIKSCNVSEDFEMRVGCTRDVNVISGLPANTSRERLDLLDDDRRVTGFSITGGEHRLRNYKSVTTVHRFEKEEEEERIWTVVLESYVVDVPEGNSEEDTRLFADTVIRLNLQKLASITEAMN
Substitution	relative binding score [%]
L169E	0.58
R132G	52.7
V145W	-3.6
I52H	5.75
E130F	11.8
N165G	3.57
S117A	3.62

Series 3
Target: RNA binding protein fox-1 homolog 2, RRM domain, GST-SBP tag (RBFOX2, Homo sapiens, UniProt O43251-10, residues 100-194)
Method: RNA Bind-n-Seq
Molecule type: RNA
Sample: in vitro
Tested at: 365 nM
Setting: natural RNA segment, single round, ends assumed
Baseline: no-protein control
Reading: higher = stronger binding
Residues (chain): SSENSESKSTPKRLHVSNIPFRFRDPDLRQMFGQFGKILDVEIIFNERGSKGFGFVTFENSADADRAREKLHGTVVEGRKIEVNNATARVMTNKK
Oligonucleotide	RBNS enrichment (R)
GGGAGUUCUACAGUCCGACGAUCUGCCUGCCUCCUUGUGUGGACAGAGUGGUGAAGACGUAUUCCUCACCUCCUUGCCUUUCAGUAAAUGGCCACGAUGUGACUAUUUGUUGAGGUUUCCAGCCUCUUCCAAGUGGAAUUCUCGGGUGCCAA	0.171
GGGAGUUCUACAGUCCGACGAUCAGGCAUGGGUGCAAGGAAAAUUAGGGUACUCAACCUAAGUUCGGUUCCGAUGAAUUCUUAUCCCCUGCCCCUUCCUUUAAAAAACUUAGUGACAAAAUAGACAAUUUGCAUGGAAUUCUCGGGUGCCAA	5.52
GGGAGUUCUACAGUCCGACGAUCCAUCCUCCUCACAUGAAUGUCAACCCACAACAACCAGCAUAGCAAAUGAAAGAAAGGAAUUGUAUUUACCUUUUAUAAUUAUUAUUAGUGUGGGUAUGGCUAAUGAGUUCUGGAAUUCUCGGGUGCCAA	0.784
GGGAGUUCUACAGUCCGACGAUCGCCACUUCUGAUUUGCCAUGGUUGACAGCAUAGUGGAAGAUAGAUAUGACAGCGCUUUGUAAAGCAGGCCAGUGGCAAGCUGGCCCACAGUAGAGAAACACUGUAGUUCAUGGAAUUCUCGGGUGCCAA	0.476
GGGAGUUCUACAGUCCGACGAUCCCGUGACCCCCGGGAUCCCGCCGGUUUUUUCCCCUCCUGGGGGCUCAUGGGGGAGAAUUCCCAGCUCUCCCAACUCUUCCCGCCUCCCACUUUCCCCAGGAACACUCCCGUGGAAUUCUCGGGUGCCAA	0.665
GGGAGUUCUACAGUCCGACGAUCGGGAAAACGGCGUCGCCCUCAUUUCAACCCCACUCCUACCCCCUUCCUCAACCCCCAAACAAAACAAACAAACUUCCCUGGCUUCGCACCUGCCUGGGGCCUCGCAGCGGUGGAAUUCUCGGGUGCCAA	1.08
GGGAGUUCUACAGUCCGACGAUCUCAGUUCUUUUAAAAUUUCUUCAAGAAAAUCCAGGCUAUCACAUAGUCUUUCUGUGUGACUUAUUAGGAGAUAGGAAGAGCAUUGGGAAACUUGCACAGCUAGCUAUGCAUGGAAUUCUCGGGUGCCAA	0.565
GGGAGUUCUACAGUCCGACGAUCGUGGAGGGACUGGCACCGGUUAACUCCUGGUAGGUGCCAAAGCCAUGGGCAUACCAAGCCAGAGCCCCAGGGAUAAGCUGGGGGGUCUUGUGGCCUUUAGGACAGUGCUUUGGAAUUCUCGGGUGCCAA	0.5
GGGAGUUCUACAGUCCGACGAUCCUCCUUUUUUCUCUUGCUGCCCACAUUGUGCCUUUAUUUUAUGAGCCCCAGUUUUCUGGGCUUAGUUUAAAAAAAAAAUCAAGUCUAAACAUUGCAUUUAGAAAGCUUUUUGGAAUUCUCGGGUGCCAA	0.753
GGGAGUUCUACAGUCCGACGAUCGCUCCGCAUGGUUCAUUUUCUGAUGCCCACCGAGGAGCCCCAGCCCCGUCCCAGAGGCCGCUGCCCCUGAGUUCUGACACUGUGUGUUUGGGAAGGUGGGUGAGGCUGGGUGGAAUUCUCGGGUGCCAA	1.19
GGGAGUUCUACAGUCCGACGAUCAUCAAAUCAUUUGCAUUCCCACAGCAUCCUGAAUACCGACUACCUCUUCACUUGCUAAAGCAGCUAAACUGUGAAGCUCUAAGUGGUUUGGGUUUGUUGUUUAACCUUAGUGGAAUUCUCGGGUGCCAA	0.364
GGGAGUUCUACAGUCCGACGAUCCUACAUAGAGGCUUUUUCAGCAUUACUGUGUCGUCUCCGUGCCAGAUGUGGCAAGAUCACCAUUAGCAAAUGGAAAUUACAUUUGAAAGCCAUUAGACUUAUAGGUGAUGUGGAAUUCUCGGGUGCCAA	0.313

Further values, each from its own experiment
Molecule	target	assay	test system	setting	how to read	measurement	result
PhoQ, residues 284 288 289 292 302 303 SLCLSL	PhoP, residues 12 14 15 18 19 MHTVL (Escherichia coli, UniProt P23836)	Sort-seq, measured: YFP reporter	E. coli	PhoQ-PhoP variant library, added: 10 µM Mg2+	baseline: high Mg2+ state, higher = stronger signaling	fold induction	1.42

Excerpt of the above (series 3):
Oligonucleotide	RBNS enrichment (R)
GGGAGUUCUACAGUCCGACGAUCCUCCUUUUUUCUCUUGCUGCCCACAUUGUGCCUUUAUUUUAUGAGCCCCAGUUUUCUGGGCUUAGUUUAAAAAAAAAAUCAAGUCUAAACAUUGCAUUUAGAAAGCUUUUUGGAAUUCUCGGGUGCCAA	0.753
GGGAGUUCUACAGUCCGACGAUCAUCAAAUCAUUUGCAUUCCCACAGCAUCCUGAAUACCGACUACCUCUUCACUUGCUAAAGCAGCUAAACUGUGAAGCUCUAAGUGGUUUGGGUUUGUUGUUUAACCUUAGUGGAAUUCUCGGGUGCCAA	0.364
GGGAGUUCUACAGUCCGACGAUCAGGCAUGGGUGCAAGGAAAAUUAGGGUACUCAACCUAAGUUCGGUUCCGAUGAAUUCUUAUCCCCUGCCCCUUCCUUUAAAAAACUUAGUGACAAAAUAGACAAUUUGCAUGGAAUUCUCGGGUGCCAA	5.52
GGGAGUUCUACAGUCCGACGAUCCUACAUAGAGGCUUUUUCAGCAUUACUGUGUCGUCUCCGUGCCAGAUGUGGCAAGAUCACCAUUAGCAAAUGGAAAUUACAUUUGAAAGCCAUUAGACUUAUAGGUGAUGUGGAAUUCUCGGGUGCCAA	0.313
